Assay results gathered from unrelated publications.
± marks the error that the study gave.

SMILES	test	test system	conditions	logP
CC/C=C\C/C=C\C/C=C\C/C=C\C/C=C\C/C=C\CCC(=O)Nc1ccn(C2OC(CO)C(O)C2(F)F)c(=O)n1 (centres unmarked)		octanol/PBS	pH 7.4	2.24 ± 0.25
N=C(N)NCCC[C@@H]1NC(=O)[C@H](CCCCNC(=O)CC[C@H](NC(=O)CC[C@H](NC(=O)CN2CCN(CC(=O)O)CCN(CC(=O)O)CCN(CC(=O)O)CC2)C(=O)N[C@@H](CCC(=O)NCCCC[C@@H]2NC(=O)[C@@H](Cc3ccccc3)NC(=O)[C@H](CC(=O)O)NC(=O)CNC(=O)[C@H](CCCNC(=N)N)NC2=O)C(=O)NCCCC[C@@H]2NC(=O)[C@@H](Cc3ccccc3)NC(=O)[C@H](CC(=O)O)NC(=O)CNC(=O)[C@H](CCCNC(=N)N)NC2=O)C(=O)NCCCC[C@@H]2NC(=O)[C@@H](Cc3ccccc3)NC(=O)[C@H](CC(=O)O)NC(=O)CNC(=O)[C@H](CCCNC(=N)N)NC2=O)NC(=O)[C@@H](Cc2ccccc2)NC(=O)[C@H](CC(=O)O)NC(=O)CNC1=O [gallium-68 labelled]		octanol/PBS	pH 7.4, room temperature	-3.76 ± 0.07
CN(C)C(=O)c1ccc(COC(=O)N(Cc2cccc(CN3CCCCC3)c2)[c-]2cccc2)cc1.[Fe+2].c1cc[cH-]c1	RP-TLC	MOPS/acetonitrile	pH 7.4	5.79 ± 0.03
COc1cc(OC)cc(C2=C3C(C)=C(I)C(/C=C/c4cccs4)=[N+]3[B-](F)(F)n3c(/C=C/c4cccs4)c(I)c(C)c32)c1		octanol/HEPES buffer	pH 7.4, room temperature	1.01
C[C@H](Oc1cc(-c2cnn(C3CCN(CC[18F])CC3)c2)cnc1N)c1c(Cl)ccc(F)c1Cl	octanol/water partition			0.73
CC[P+](CC)(CC)[Au-][S]c1ccc(SCC(=O)N[C@H]2[C@H](OC(C)=O)O[C@H](COC(C)=O)[C@@H](OC(C)=O)[C@@H]2OC(C)=O)cc1		n-octanol/water		-0.36
COC(=O)c1ccccc1-c1c2ccc(=O)cc-2oc2cc(OCCCCC[P+](c3ccc(C)cc3)(c3ccc(C)cc3)c3ccc(C)cc3)ccc12	shake-flask HPLC	1-octanol/water		1.43 ± 0.01
N.N.O=C(CCCc1ccccc1)[O][Pt]([Cl])([Cl])[O]C(=O)CCCc1ccccc1	shake-flask	octanol/water		-0.73 ± 0.05
Cc1c([O][Ru][Cl])c(=O)ccn1CCCCn1ccc(=O)c([O][Ru][Cl])c1C.Cc1ccc(C(C)C)cc1.Cc1ccc(C(C)C)cc1	shake flask, ICP-MS	n-octanol/water	aqua complex	-1.33
COc1cc(OC)cc(C2=C3C(C)=C(I)C(C)=[N+]3[B-](F)(F)n3c(/C=C/c4cccs4)c(I)c(C)c32)c1		octanol/HEPES buffer	pH 7.4, room temperature	0.73
O=C1c2ccccc2C2(c3ccc(O)cc3Oc3cc(O)ccc32)N1CCS(=O)(=O)O	shake flask	n-octanol/water	25 °C	-1.03
C#CCN(C(=O)OCc1ccc(B(O)O)cc1)[c-]1cccc1.[Fe+2].c1cc[cH-]c1	RP-TLC	MOPS/acetonitrile	pH 7.4	3.35 ± 0.25
CCC1=C(CC)C2=[N+]3C1=Cc1c(CC)c(CC)c4[n]1[Ir-3]31([n+]3ccccc3)([n+]3ccccc3)[n]3c(c(CC)c(CC)c3=CC3=[N+]1C(=C4)C(CC)=C3CC)=C2.[Cl-]	ICP-MS	n-octanol/saline		2.83
N[C@H](CSC(F)(F)[18F])C(=O)O		n-octanol/water		-2.22

Excerpt of the above:
SMILES	test	test system	conditions	logP
Cc1c([O][Ru][Cl])c(=O)ccn1CCCCn1ccc(=O)c([O][Ru][Cl])c1C.Cc1ccc(C(C)C)cc1.Cc1ccc(C(C)C)cc1	shake flask, ICP-MS	n-octanol/water	aqua complex	-1.33
CN(C)C(=O)c1ccc(COC(=O)N(Cc2cccc(CN3CCCCC3)c2)[c-]2cccc2)cc1.[Fe+2].c1cc[cH-]c1	RP-TLC	MOPS/acetonitrile	pH 7.4	5.79 ± 0.03
